Measurements pooled from the literature.
Lines come from different studies, so protocols differ. “And” joins repeats or separate records; there may be more than shown.
Cell line: K562

Compound	test	test system	conditions	how to read	measurement	value
COc1c(CCC[P+](c2ccccc2)(c2ccccc2)c2ccccc2)cc2c(c1OC)OCO2.[I-]	SRB	–	–	–	TGI	> -4 log M
Cn1cncc1C1=CN(c2ncnc3[nH]cnc23)CCS1	–	–	leukemia	–	CC50	> 200000 nM
CN1CCN(C2(CNC3CCN(c4cccc(-c5cc6cc(F)ccc6[nH]5)c4)CC3)CCC2)CC1	–	–	–	–	GI50	205 nM
COc1cc(CCC[P+](c2ccccc2)(c2ccccc2)c2ccccc2)c(OC)c2c1OCO2.[I-]	SRB	–	–	–	LC50	> -4 log M
CCN(CC)c1ccc(C=NNC(=O)CSc2nc3ccccc3c(=O)n2Cc2ccc(S(N)(=O)=O)cc2)c(O)c1	–	–	–	–	CC50	> 100000 nM
Nc1ncc(-c2nc(N3CCOCC3)nc(N3CCOCC3)n2)c(C(F)F)n1	–	–	72 h	–	GI50	715 nM
COc1c(C)c2c(c(O)c1C/C=C(\C)CCC(=O)O)C(=O)OC2	cell proliferation	blood cancer	–	–	IC50	204 nM
Cc1n[nH]c(C)c1CSC1CCCCC1	cytotoxicity	–	–	reference: IC50 HEK293 over IC50 K562	selectivity index	1.5
CC(C)N1CCC(NC2CCN(c3cccc(-c4cc5cc(F)ccc5[nH]4)c3)CC2)CC1	–	–	–	–	GI50	218 nM
Cc1n[nH]c(C)c1CSCc1ccccc1	cytotoxicity	–	–	reference: IC50 HEK293 over IC50 K562	selectivity index	1.5
CCCCCCCCCCCCCC(=O)O[C@@H]1[C@@H](C)[C@@]2(O)[C@@H](C=C(CO)C[C@]3(O)C(=O)C(C)=C[C@@H]23)[C@@H]2C(C)(C)[C@]12OC(C)=O	flow cytometry	–	concentration not given	reference: cells	S phase cells	16.6% and 16.1%

For quick reference, copied from above:
Compound	test	test system	conditions	how to read	measurement	value
CCCCCCCCCCCCCC(=O)O[C@@H]1[C@@H](C)[C@@]2(O)[C@@H](C=C(CO)C[C@]3(O)C(=O)C(C)=C[C@@H]23)[C@@H]2C(C)(C)[C@]12OC(C)=O	flow cytometry	–	concentration not given	reference: cells	S phase cells	16.6% and 16.1%
